Experimental data pooled from the literature.
Each line is one published result; not all experiments were run side by side. Values joined by “and” are separate records of one study, mostly repeats; a detail may differ. ± gives the spread as reported.
SOST: Sclerostin (SOST, Homo sapiens, UniProt Q9BQB4)
Sequence of UniProt Q9BQB4 (whole entry, looked up): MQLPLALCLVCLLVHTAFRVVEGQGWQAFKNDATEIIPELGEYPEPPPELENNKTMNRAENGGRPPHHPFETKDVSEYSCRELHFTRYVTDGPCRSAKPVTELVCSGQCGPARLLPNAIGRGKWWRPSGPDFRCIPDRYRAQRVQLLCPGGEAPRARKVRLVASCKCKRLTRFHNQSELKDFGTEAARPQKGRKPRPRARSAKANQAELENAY
BCL2L1: Bcl-2-like protein 1 (BCL2L1, Homo sapiens, UniProt Q07817)
Sequence of UniProt Q07817 (whole entry, looked up): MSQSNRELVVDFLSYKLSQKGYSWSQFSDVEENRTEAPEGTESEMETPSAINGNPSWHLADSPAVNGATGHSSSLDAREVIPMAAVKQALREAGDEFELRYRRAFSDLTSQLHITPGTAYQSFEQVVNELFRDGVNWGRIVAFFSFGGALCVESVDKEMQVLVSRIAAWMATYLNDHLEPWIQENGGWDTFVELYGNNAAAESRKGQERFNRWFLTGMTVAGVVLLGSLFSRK
LGALS4 C-terminal domain: Galectin-4, C-terminal domain (LGALS4, Homo sapiens, UniProt P56470)
Sequence of UniProt P56470 (whole entry, looked up): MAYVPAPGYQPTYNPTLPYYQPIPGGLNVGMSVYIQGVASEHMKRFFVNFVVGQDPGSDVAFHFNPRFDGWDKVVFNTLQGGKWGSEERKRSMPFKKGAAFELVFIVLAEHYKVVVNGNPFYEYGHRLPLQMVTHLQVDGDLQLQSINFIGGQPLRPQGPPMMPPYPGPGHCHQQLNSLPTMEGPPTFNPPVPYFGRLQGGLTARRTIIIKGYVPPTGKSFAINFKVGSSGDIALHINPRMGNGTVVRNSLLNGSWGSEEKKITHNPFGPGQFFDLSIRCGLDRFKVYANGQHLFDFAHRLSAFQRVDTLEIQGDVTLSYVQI
LGALS3: Galectin-3 (LGALS3, Homo sapiens, UniProt P17931)
Sequence of UniProt P17931 (whole entry, unmodified, looked up): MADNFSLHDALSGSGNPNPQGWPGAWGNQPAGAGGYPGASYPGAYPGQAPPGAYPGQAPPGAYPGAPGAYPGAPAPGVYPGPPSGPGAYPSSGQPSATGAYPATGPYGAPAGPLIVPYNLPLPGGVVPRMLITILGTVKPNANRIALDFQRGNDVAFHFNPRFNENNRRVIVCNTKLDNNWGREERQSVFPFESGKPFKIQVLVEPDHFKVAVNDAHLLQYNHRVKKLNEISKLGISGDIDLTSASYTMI
Sequence of UniProt P98170 (whole entry, looked up): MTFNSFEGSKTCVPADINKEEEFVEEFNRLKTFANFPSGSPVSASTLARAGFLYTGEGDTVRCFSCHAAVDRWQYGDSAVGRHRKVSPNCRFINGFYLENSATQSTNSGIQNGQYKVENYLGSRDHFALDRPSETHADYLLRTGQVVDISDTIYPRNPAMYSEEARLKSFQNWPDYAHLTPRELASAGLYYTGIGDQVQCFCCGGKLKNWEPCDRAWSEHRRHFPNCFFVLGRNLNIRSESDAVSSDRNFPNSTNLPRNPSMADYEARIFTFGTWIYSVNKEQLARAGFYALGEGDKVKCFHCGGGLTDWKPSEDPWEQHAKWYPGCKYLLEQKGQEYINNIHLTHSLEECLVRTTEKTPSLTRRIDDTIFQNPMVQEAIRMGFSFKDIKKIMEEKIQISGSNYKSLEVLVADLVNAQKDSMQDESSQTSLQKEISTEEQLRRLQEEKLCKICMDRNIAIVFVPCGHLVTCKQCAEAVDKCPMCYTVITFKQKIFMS
Sequence of UniProt P62937 (whole entry, looked up): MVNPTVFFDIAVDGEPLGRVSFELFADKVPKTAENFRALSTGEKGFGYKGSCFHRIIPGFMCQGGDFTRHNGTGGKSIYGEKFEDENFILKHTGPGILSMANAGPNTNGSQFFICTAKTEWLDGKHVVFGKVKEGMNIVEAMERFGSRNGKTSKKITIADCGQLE
Sequence of UniProt P27694 (whole entry, unmodified, looked up): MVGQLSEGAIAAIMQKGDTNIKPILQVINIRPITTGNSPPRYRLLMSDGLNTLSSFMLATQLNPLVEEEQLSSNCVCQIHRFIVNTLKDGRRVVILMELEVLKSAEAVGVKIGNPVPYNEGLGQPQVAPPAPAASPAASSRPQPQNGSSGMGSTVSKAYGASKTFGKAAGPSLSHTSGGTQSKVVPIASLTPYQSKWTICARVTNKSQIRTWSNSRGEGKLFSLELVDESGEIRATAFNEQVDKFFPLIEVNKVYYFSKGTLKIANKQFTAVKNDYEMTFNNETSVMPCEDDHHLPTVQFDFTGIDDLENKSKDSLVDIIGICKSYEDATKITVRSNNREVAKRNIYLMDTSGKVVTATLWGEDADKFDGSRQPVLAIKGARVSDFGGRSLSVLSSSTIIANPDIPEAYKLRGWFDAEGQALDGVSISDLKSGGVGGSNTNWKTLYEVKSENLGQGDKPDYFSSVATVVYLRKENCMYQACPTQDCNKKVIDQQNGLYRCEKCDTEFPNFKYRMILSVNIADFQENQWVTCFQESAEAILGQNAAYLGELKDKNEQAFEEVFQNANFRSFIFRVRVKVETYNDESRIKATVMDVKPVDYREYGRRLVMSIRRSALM
Sequence of UniProt Q9LFP6 (whole entry, looked up): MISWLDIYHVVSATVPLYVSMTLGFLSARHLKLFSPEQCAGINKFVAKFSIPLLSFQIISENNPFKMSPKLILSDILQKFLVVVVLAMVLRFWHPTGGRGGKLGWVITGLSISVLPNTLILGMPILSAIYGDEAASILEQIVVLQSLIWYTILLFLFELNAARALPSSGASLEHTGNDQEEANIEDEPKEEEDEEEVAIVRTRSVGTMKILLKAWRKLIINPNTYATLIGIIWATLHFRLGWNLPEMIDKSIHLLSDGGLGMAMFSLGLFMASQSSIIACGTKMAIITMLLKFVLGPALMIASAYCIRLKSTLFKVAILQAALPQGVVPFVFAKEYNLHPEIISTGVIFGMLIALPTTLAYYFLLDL
Sequence of UniProt Q9ESK4 (whole entry, looked up): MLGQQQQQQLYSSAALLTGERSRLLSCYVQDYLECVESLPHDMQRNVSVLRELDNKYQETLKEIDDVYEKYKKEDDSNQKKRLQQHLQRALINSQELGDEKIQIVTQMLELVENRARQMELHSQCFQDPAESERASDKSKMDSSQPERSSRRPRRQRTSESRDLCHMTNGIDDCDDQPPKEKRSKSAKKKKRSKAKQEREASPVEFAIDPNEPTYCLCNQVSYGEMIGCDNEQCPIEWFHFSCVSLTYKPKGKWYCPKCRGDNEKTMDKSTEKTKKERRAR
Sequence of UniProt Q8N5Y8 (whole entry, looked up): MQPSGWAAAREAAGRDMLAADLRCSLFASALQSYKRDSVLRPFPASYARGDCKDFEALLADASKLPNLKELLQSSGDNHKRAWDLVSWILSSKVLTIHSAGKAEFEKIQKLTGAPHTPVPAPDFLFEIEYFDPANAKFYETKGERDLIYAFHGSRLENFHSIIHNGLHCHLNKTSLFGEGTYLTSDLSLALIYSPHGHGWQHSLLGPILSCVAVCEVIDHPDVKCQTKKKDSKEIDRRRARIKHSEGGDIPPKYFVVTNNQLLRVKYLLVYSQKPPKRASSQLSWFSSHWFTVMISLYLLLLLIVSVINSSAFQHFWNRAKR
Sequence of UniProt Q92915 (whole entry, looked up): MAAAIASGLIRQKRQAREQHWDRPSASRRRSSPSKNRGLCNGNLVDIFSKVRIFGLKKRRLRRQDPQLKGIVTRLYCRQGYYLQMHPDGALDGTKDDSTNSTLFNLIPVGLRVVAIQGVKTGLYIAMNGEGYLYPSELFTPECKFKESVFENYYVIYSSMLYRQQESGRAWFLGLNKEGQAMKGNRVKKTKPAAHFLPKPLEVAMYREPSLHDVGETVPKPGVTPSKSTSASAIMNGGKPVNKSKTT
Sequence of UniProt Q13976 (whole entry, looked up): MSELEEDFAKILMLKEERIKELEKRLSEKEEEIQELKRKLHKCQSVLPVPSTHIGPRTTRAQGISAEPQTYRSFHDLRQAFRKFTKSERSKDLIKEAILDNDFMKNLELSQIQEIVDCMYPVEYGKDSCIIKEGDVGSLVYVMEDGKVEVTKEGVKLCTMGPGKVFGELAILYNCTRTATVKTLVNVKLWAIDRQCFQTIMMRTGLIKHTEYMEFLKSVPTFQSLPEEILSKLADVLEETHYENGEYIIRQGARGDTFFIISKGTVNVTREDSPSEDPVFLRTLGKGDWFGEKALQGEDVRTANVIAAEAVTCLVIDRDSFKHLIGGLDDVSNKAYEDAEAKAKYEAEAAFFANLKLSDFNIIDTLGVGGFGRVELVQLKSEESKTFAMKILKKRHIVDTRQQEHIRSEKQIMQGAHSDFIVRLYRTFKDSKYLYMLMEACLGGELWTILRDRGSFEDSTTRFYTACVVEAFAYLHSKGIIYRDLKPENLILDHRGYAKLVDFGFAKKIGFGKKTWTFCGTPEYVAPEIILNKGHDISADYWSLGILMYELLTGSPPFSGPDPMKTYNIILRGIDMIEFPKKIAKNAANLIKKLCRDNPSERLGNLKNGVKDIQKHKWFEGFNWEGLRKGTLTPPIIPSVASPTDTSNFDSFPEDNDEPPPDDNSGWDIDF

SMILES = COc1c(F)c(F)c(C(=O)N[C@H]2[C@@H](O)[C@@H](CO)O[C@@H](S[C@@H]3O[C@H](CO)[C@H](O)[C@H](NC(=O)c4c(F)c(F)c(OC)c(F)c4F)[C@H]3OS(=O)(=O)O)[C@@H]2O)c(F)c1F; target = Galectin-3 (LGALS3, Homo sapiens, UniProt P17931, R144K); assay = cell-free assay, FP; Kd = 0.49 µM
SMILES = C[n+]1cc2cc3cc(ccc31)NC(=O)CCCCC(=O)Nc1ccc3c(c1)cc(c[n+]3C)C(=O)Nc1ccc3[nH]cc(c3c1)CCNC2=O; target = c-MYC Pu22 G-quadruplex DNA; assay = thiazole orange displacement; setting = with: 0.50 µM thiazole orange; Kd = 0.19 ± 0.03 µM
SMILES = CC(=O)N[C@@H]1[C@@H](O[C@@H]2O[C@H](C(=O)O)[C@@H](O[C@@H]3O[C@H](COS(=O)(=O)O)[C@@H](OS(=O)(=O)O)[C@H](O[C@@H]4O[C@H](C(=O)O)[C@@H](OS(=O)(=O)O)[C@H](OS(=O)(=O)O)[C@H]4OS(=O)(=O)O)[C@H]3NC(C)=O)[C@H](OS(=O)(=O)O)[C@H]2OS(=O)(=O)O)[C@H](OS(=O)(=O)O)[C@@H](COS(=O)(=O)O)O[C@H]1N=[N+]=[N-]; target = SOST; assay = ligand displacement, FP; Kd = 2.8 µM
SMILES = CC1=CC(C)=[N+]2C1=Cc1ccc(CCC(=O)NCCOCCOCCOCCOCC(=O)N[C@H](C(=O)N3C[C@H](O)C[C@H]3C(=O)NCc3ccc(-c4scnc4C)cc3)C(C)(C)C)n1[B-]2(F)F; target = von Hippel-Lindau disease tumor suppressor, with elongin B/C (VHL, Homo sapiens, UniProt P40337); assay = binding, TR-FRET; setting = 90 min, specific binding; Kd = 0.00339 µM
SMILES = CC[C@H](C)[C@H](NC(=O)[C@H](CCC(=O)O)NC(=O)[C@@H]1CCCN1C(=O)[C@H](CCCNC(=N)N)NC(C)=O)C(=O)N[C@@H](Cc1c[nH]c2ccccc12)C(=O)N[C@@H](C)C(=O)N[C@@H](C)C(=O)N[C@@H](CCC(N)=O)C(=O)N[C@@H](CCC(=O)O)C(=O)N[C@@H](CC(C)C)C(=O)N[C@@H](CCC(N)=O)C(=O)N[C@@H](CCCNC(=N)N)C(=O)N[C@@H](CC(N)=O)C(=O)NCC(=O)N[C@@H](CC(=O)O)C(=O)N[C@@H](CCC(=O)O)C(=O)N[C@@H](Cc1ccc(O)cc1)C(=O)N[C@@H](CC(N)=O)C(=O)N[C@@H](C)C(=O)N[C@@H](Cc1ccc(O)cc1)C(=O)N[C@@H](Cc1ccc(O)cc1)C(=O)N[C@@H](C)C(=O)N[C@@H](CCCNC(=N)N)C(=O)N[C@@H](CCCNC(=N)N)C(=O)N[C@H](C(=O)N[C@@H](Cc1ccccc1)C(=O)N[C@@H](CC(C)C)C(=O)N[C@@H](CC(N)=O)C(N)=O)C(C)C; target = BCL2L1; assay = competitive fluorescence polarization; setting = with: fluorescein-labelled peptide 10 nM; Kd = 0.031 µM
SMILES = O=C(Nc1ccc(S(=O)(=O)Nc2cnc3ccccc3n2)cc1)c1ccc(Cl)cc1Cl; target = PPIA (Homo sapiens, UniProt P62937); assay = binding, SPR; setting = pH 7.4; Kd = 8.99 µM
SMILES = CC(C)C1=CC23CCC4C(C)(C(=O)O)CCCC4(C)C2CC1C(C(=O)O)C3C(=O)O (stereo not drawn); target = Replication protein A 70 kDa DNA-binding subunit, lacking DBD-F (RPA1, Homo sapiens, UniProt P27694); assay = tryptophan fluorescence quenching; Kd = > 400 µM
SMILES = CC(=O)N[C@@H]1[C@@H](O[C@@H]2O[C@H](C(=O)O)[C@@H](O[C@@H]3O[C@H](CO)[C@@H](OS(=O)(=O)O)[C@H](O[C@@H]4O[C@H](C(=O)O)[C@@H](OS(=O)(=O)O)[C@H](OS(=O)(=O)O)[C@H]4OS(=O)(=O)O)[C@H]3NC(C)=O)[C@H](OS(=O)(=O)O)[C@H]2OS(=O)(=O)O)[C@H](OS(=O)(=O)O)[C@@H](CO)O[C@H]1N=[N+]=[N-]; target = SOST; assay = ligand displacement, FP; Kd = 11.2 µM
SMILES = CC(C)C[C@H](NC(=O)[C@H](Cc1ccccc1)NC(=O)OCc1ccccc1)C(=O)N1CCC[C@H]1C(=O)N[C@@H](CCCCNC(=O)OC(C)(C)C)C(N)=O; target = Fibroblast growth factor 14 (Homo sapiens, UniProt Q92915); assay = binding, SPR; setting = pH 7.4; Kd = 89.6 µM
SMILES = Nc1ncnc2c1ncn2[C@@H]1O[C@H](CO)[C@@H](O[C@H]2O[C@H](CO)[C@@H](OP(=O)(O)O)[C@H](OP(=O)(O)O)[C@H]2O)[C@H]1O; target = Inositol 1,4,5-trisphosphate-gated calcium channel ITPR1, N-terminal region (Itpr1, Rattus norvegicus, UniProt P29994, del318-332/R568Q); assay = [3H]IP3 competition binding; test system = N-terminal fragment R568Q; setting = Tris-EDTA medium; Kd = 0.0137 µM
SMILES = COc1ccc2cc(-c3ccc(-c4ccc(C)cn4)nc3)oc2c1; target = zinc(II); assay = binding, fluorescence titration; test system = aqueous HEPES buffer; setting = pH 7.4, metal-buffered solution; Kd = 0.02 to 0.8 µM
SMILES = CCc1nc2cc3ccccc3cc2cc1C(=O)N1CCC[C@H]1C(=O)N[C@@H](CCC/C=C/CCC[C@H](NC(=O)[C@@H]1CCCN1C(=O)c1cc2cc3ccccc3cc2nc1CC)C(=O)N[C@@H](CCCCN)C(=O)NCCCN)C(=O)N[C@@H](CCCCN)C(=O)NCCCN; target = (CUG)10 RNA; assay = SPR; setting = pH 7.4; Kd = 0.0225 µM
SMILES = C#Cc1ccc2c(=O)[nH]nc(Cc3ccc(F)c(C(=O)N4CCN(C(=O)C=C)CC4)c3)c2c1; target = PARP16 (Homo sapiens, UniProt Q8N5Y8); assay = covalent labelling, click chemistry in-gel fluorescence; test system = HAP1; setting = 2 h; Kd = 0.0516 µM
SMILES = O=C(O)COc1ccccc1Cl; target = PIN8 (Arabidopsis thaliana, UniProt Q9LFP6); assay = cell-free assay; Kd = 106 µM
SMILES = CN(C)c1ccc2c(-c3ccc(C(=O)NCCCC[C@@H](NC(=O)[C@@H](CCCNC(=N)N)NC(=O)[C@@H](CCCNC(=N)N)NC(=O)[C@@H](CCCNC(=N)N)NC(=O)[C@@H](CCCNC(=N)N)NC(=O)[C@@H](CCCNC(=N)N)NC(=O)[C@@H](CCCNC(=N)N)NC(=O)CCCCCNC(=O)[C@@H](CCCNC(=N)N)NC(=O)CCCCCNC(=O)c4ccc(-c5ccnc(N)n5)s4)C(N)=O)cc3C(=O)[O-])c3ccc(=[N+](C)C)cc-3oc2c1; target = cGMP-dependent protein kinase 1, isoform alpha (PRKG1, Homo sapiens, UniProt Q13976); assay = binding, fluorescence anisotropy; setting = no Mg2+, with: 1 µM cGMP; Kd = 0.0027 µM
SMILES = OC[C@H]1Oc2c(I)c(I)cc3c2[C@@H](OC3)[C@H]1O; target = LGALS4 C-terminal domain; assay = binding, competitive fluorescence polarization; setting = 20 °C; Kd = 840 µM and < 1000 µM
SMILES = C[C@H](N)C(=O)N[C@@H](CCCNC(=N)N)C(=O)N[C@H](C(=O)N[C@@H](CCCC[N+](C)(C)C)C(=O)N[C@@H](CCC(N)=O)C(=O)N[C@H](C(=O)N[C@@H](C)C(=O)N[C@@H](CCCNC(=N)N)C(=O)N[C@@H](CCCCN)C(=O)N[C@@H](CO)C(=O)N[C@H](C(=O)NCC(N)=O)[C@@H](C)O)[C@@H](C)O)[C@@H](C)O; target = Inhibitor of growth protein 2, PHD finger (Ing2, Mus musculus, UniProt Q9ESK4); assay = binding, isothermal titration calorimetry; setting = pH 7.2; Kd = 0.98 µM
SMILES = Cc1cc(=O)[nH]c(-n2nc(-c3cccs3)cc2NC(=O)C2(c3ccc(Cl)cc3)CCCC2)n1; target = Cystic fibrosis transmembrane conductance regulator, NBD1 (CFTR, Homo sapiens, UniProt P13569, F494N/del508-508); assay = binding, surface plasmon resonance; Kd = 38 µM
SMILES = CC#Cc1cc2c3c(c1C#CC)O[C@H](CO)[C@H](O)[C@@H]3OC2; target = LGALS4 C-terminal domain; assay = binding, competitive fluorescence polarization; setting = 20 °C; Kd = ~3000 µM
SMILES = O=C(Nc1cccc(C(=O)Nc2ccc(S(=O)(=O)O)c3cc(S(=O)(=O)O)cc(S(=O)(=O)O)c23)c1)Nc1cccc(C(=O)Nc2ccc(S(=O)(=O)O)c3cc(S(=O)(=O)O)cc(S(=O)(=O)O)c23)c1; target = E3 ubiquitin-protein ligase XIAP, BIR1 domain (XIAP, Homo sapiens, UniProt P98170); assay = microscale thermophoresis; setting = 24 °C; Kd = 25 ± 5 µM
SMILES = COc1c(F)c(F)c(C(=O)N[C@H]2[C@@H](O)[C@@H](CO)O[C@@H](S[C@@H]3O[C@H](CO)[C@H](O)[C@H](NC(=O)c4c(F)c(F)c(OC)c(F)c4F)[C@H]3O)[C@@H]2O)c(F)c1F; target = LGALS3; assay = cell-free assay, FP; Kd = 0.5 µM
SMILES = COc1ccc2nc3cc(Cl)ccc3c(NCCCCNc3nc(N)nc(N)n3)c2c1; target = DNA duplex with (CCTG)2 step; assay = binding, ITC; setting = binding site 1; Kd = 14 µM
SMILES = CC[C@H](C)[C@H](NC(=O)[C@H](CCCNC(=N)N)NC(=O)[C@H](CCCCN)NC(=O)[C@H](CC(C)C)NC(=O)[C@H](CCC(N)=O)NC(=O)[C@H](C)NC(=O)CNC(=O)[C@H](CC(N)=O)NC(=O)[C@H](CCC(=O)O)NC(=O)[C@H](CCCNC(=N)N)NC(=O)[C@H](C)NC(=O)[C@H](Cc1c[nH]c2ccccc12)NC(=O)[C@H](CCC(N)=O)NC(=O)[C@H](CCC(=O)O)NC(=O)[C@H](CCC(=O)O)NC(C)=O)C(=O)N[C@@H](C)C(=O)N[C@@H](CC(=O)O)C(=O)N[C@@H](CC(=O)O)C(=O)N[C@@H](Cc1ccc(O)cc1)C(=O)N[C@@H](CC(N)=O)C(=O)N[C@@H](C)C(=O)N[C@@H](CCC(N)=O)C(=O)N[C@@H](Cc1ccc(O)cc1)C(=O)N[C@@H](CCC(=O)O)C(=O)N[C@@H](CCCNC(=N)N)C(=O)N[C@@H](CCCNC(=N)N)C(=O)N[C@@H](CCCNC(=N)N)C(=O)N[C@@H](CCC(N)=O)C(N)=O; target = BCL2L1; assay = binding, flow cytometry; setting = pH 8; Kd = 0.005 µM
SMILES = Oc1cc(O)c2c(c1)OC(c1ccc(O)c(O)c1)C(OC1(c3ccc(O)c(O)c3)Oc3cc(O)cc(O)c3C(O)C1O)C2 (stereo not drawn); target = PDE5A (Homo sapiens, UniProt O76074); assay = binding, MST; Kd = 7.77 µM
SMILES = CC[C@H](C)[C@H](NC(=O)[C@H](CCCNC(=N)N)NC(=O)[C@H](CO)NC(=O)[C@H](CC(C)C)NC(=O)[C@H](CCC(=O)O)NC(=O)[C@H](CCC(N)=O)NC(=O)[C@H](C)NC(=O)[C@@H](NC(=O)[C@H](Cc1c[nH]c2ccccc12)NC(=O)[C@@H](NC(=O)[C@H](CCC(=O)O)NC(=O)[C@@H]1CCCN1C(=O)[C@H](CCCNC(=N)N)NC(=O)c1ccc2c(c1)C(=O)OC21c2ccc(O)cc2Oc2cc(O)ccc21)[C@@H](C)CC)[C@@H](C)CC)C(=O)NCC(=O)N[C@@H](CC(=O)O)C(=O)N[C@@H](CCC(=O)O)C(=O)N[C@@H](Cc1ccccc1)C(=O)N[C@@H](CC(N)=O)C(=O)N[C@@H](C)C(=O)N[C@@H](Cc1ccc(O)cc1)C(=O)N[C@@H](Cc1ccc(O)cc1)C(=O)N[C@@H](C)C(=O)N[C@@H](CCCNC(=N)N)C(N)=O; target = BCL2L1; assay = fluorescence anisotropy; Kd = 0.0038 ± 0.0014 µM
SMILES = COc1cccc(C(=O)N[C@H]2[C@@H](O)[C@@H](CO)O[C@@H](S[C@@H]3O[C@H](CO)[C@H](O)[C@H](NC(=O)c4cccc(OC)c4)[C@H]3OS(=O)(=O)O)[C@@H]2O)c1; target = LGALS3; assay = binding, ITC; Kd = 0.103 µM
SMILES = Cc1ncsc1-c1ccc(C(CO)NC(=O)C2CC(O)CN2C(=O)C(NC(=O)c2ccc(COc3c(-c4c(C)c(F)cc5[nH]ncc45)c(C4CC4)cc4c(N5CC6CC5CN6)nc(OC5CCOCC5)nc34)cc2)C(C)C)cc1 (stereo not drawn); target = von Hippel-Lindau disease tumor suppressor, with Elongin B/C (VHL, Homo sapiens, UniProt P40337); assay = SPR; setting = binary; Kd = 0.113 µM
